Measured values gathered from unrelated publications.
Parts stem from different laboratories: compare values within a part only. Changes are numbered by the printed parent chain.

Set 1
Target: Histone acetyltransferase KAT6A, winged helix 1, GST fusion (KAT6A, Homo sapiens, UniProt Q92794, residues 1-85)
Technique: protein binding microarray
Form: double-stranded DNA, one strand shown
Sample: in vitro
Concentration: not given
Setting: 8-mer, flanks averaged, mean of 2 arrays, mostly near background
Reference: not given
Reading: higher = stronger binding
Residues (chain): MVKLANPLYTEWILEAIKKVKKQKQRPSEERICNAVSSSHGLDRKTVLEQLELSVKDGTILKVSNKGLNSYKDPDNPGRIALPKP
Oligonucleotide | E-score
ACGTTACA | -0.0473
GCGGTACA | 0.345
CATAGAAG | -0.186
CTCGGTGA | -0.0206
CTCCAATC | -0.205
GTACCACA | -0.192
ATAGCACA | -0.114
GGTTACAA | 0.0567
CTCTTCCA | -0.195
GTCTCTAA | -0.125
CCGATGTC | -0.0431
CGCCATAA | 0.0533
GGGTAGAC | 0.167
ACATCAAC | -0.0326
ATAGGAGA | -0.207
ATAGAGGC | -0.0906
CGATGTTC | 0.0136
CGCGTAGC | 0.399
GCTAATCA | 0.0582
AAGATGAC | -0.184
CAATCTCA | -0.0917
GGCATATA | 0.0162
CGTGCCAC | 0.0931
CAAGATTC | -0.169
ATCCTCGA | -0.203

Set 2
Target: Sal-like protein 4, full length isoform B (SALL4, Homo sapiens, UniProt Q9UJQ4-2, residues 1-616)
Technique: universal PBM
Form: double-stranded DNA, one strand shown
Sample: in vitro
Concentration: not given
Setting: 8-mer, flanks averaged, mean of replicates
Reading: higher = stronger binding
Construct (chain): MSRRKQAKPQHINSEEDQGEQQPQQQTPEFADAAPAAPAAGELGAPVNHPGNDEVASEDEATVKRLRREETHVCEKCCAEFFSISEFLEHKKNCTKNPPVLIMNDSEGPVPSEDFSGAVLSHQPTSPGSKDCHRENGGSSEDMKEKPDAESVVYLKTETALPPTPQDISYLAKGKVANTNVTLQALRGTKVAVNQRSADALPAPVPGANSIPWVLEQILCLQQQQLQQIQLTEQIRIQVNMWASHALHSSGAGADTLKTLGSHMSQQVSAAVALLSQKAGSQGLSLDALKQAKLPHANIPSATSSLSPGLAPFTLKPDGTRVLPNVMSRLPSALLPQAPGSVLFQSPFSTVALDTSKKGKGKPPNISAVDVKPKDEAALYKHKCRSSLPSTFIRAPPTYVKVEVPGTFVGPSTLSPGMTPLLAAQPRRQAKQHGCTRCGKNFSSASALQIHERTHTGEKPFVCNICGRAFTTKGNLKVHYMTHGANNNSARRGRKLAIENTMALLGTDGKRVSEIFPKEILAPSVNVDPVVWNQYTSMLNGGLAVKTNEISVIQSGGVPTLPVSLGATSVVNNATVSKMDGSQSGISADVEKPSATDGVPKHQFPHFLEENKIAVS
Oligonucleotide | E-score
GGGGGCCA | -0.35
AGTACGAC | 0.00306
CGATGAAA | 0.22
ACCCCACC | -0.0925
GTCAACAA | 0.063
ACTATAAG | 0.284
AATGGTTC | 0.0931
GTGACTAA | 0.0754
ACCATAGG | -0.0456
CGTTGAAC | -0.109
GACGACCC | -0.222
GATCAATC | 0.0118
AAGAGTAA | 0.238
GTGTTCCA | 0.0461
AACGCTAG | -0.0559
CTGCACAA | 0.0626

Set 3
Target: ABI1, truncated, D143A, DHFR fusion (Arabidopsis thaliana, UniProt P49597)
Technique: DHFR PCA, dose-response
Sample: yeast
Setting: Hill fit, not affinity, not high confidence
Added: (+)-ABA, dose series
Reading: lower = more sensitive
Starting sequence: PYL1, truncated, DHFR fusion (Arabidopsis thaliana, UniProt Q8VZS8); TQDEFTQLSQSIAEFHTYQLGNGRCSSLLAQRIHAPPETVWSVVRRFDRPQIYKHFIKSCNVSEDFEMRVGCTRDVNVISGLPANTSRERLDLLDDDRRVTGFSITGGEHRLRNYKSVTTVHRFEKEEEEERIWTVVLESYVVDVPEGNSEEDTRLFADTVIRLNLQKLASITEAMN
Variant | ABA EC50
N177Q | 1.52 µM
L29D | 2140 µM
I33E | 9.32 µM
F157T | 723 µM
V78Q | 696 µM
F56P | 233 µM
S117I | 51.9 µM
V40F | 0.369 µM
F47K | 2060 µM
H16Y | 0.805 µM
R74Y | 7.55 µM
L166D | 0.403 µM
S117W | 10.3 µM
S80L | 0.455 µM
K54P | 8.99 µM
T154N | 747 µM

Set 4
Target: RNA binding protein fox-1 homolog 2, RRM domain, GST-SBP tag (RBFOX2, Homo sapiens, UniProt O43251-10, residues 100-194)
Technique: RNA Bind-n-Seq
Form: RNA
Sample: in vitro
Concentration: 365 nM
Setting: natural RNA segment, single round, ends assumed
Reference: no-protein control
Reading: higher = stronger binding
Constant ends, left off below: GGGAGUUCUACAGUCCGACGAUC … UGGAAUUCUCGGGUGCCAA
Construct (chain): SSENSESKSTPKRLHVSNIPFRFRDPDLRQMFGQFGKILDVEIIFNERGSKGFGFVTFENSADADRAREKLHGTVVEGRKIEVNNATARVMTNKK
Oligonucleotide | RBNS enrichment (R)
CAGGACCUUCUUUCAGAACGAGGGUAGUAUUACCCUAUCUGUUGGAAAGGAUGGUUUACAUAGCAGUUCCAGCCUCCUUUUGCUUUGGCCAGUUGGCCUUCUCACUUUGA | 0.291
AUGCUCCGGUGUGCCAAGCCCCAGCUCCGAUGUCUGCUUUGUGCAAUUUGCCUUUACCUCACCAAAAAUGUCUAGUUUAAUCUUCCUGCCGUGCCCGCUGACUGUCUGGG | 0.832
CUUGUUCUUCGUGAUCCUGCUAUGUGAUUGGUCACAGAGUUUUAGAUUCAGGAAAGAAUGUUACCAGCUCAAAUUCCGAGGAUUUUUUUUUCCACAGCAAAGAAUAUUUG | 1.04
UGAAGAGCUGCGCCCUGGUUUCGCCGGACAGAGUUGGUGUUUGGAGCCCGACUGCCCUCGGGCACACGGCCUGCCUGUCGCAUGUUUGUGUCUGCCUCGUUCCCUCCCCU | 10.1
CACUUAAACUAAAGGCUAAGAAUAUAGGCUUGAUGGGAAAUUGAAGGUAGGCUGAGUAUUGGGAAUCCAAAUUGAAUUUUGAUUCUCCUUGGCAGUGAACUACUUUGAAG | 0.251
AGGGGCUGGGAAGGGCUACUGAAGGCCCCAUUCUCCCACAGGAUGGUGAGGCUGGGAGGAGGAAGACUGAGGUAGAGAUUCCAGGCCCUGGCAUAAGCUGAAUCCCAAAU | 0.83
GUGCAAUGGAUAUCUGUGAUGGGCUCUUCCGCCAGAAUGGUGGCUCUGGCUAUGUGCUGAAGCCAGAAUUCCUGAGAGAUACCCAGAGUUCAUUCAAUCCUGAGAGGCCA | 0.431
AUGGUUUUGCUGUAAACUGUGUUUGGAACUCUGCUGAAGUGUUGCUGAAAAGCAUGGUGCUGGUAACAGUUCAACAAUCCGUGGCUGCUCAUUCUUGCCGACUCCUCCCC | 3.64
CUUUUAACUGGGGUAUUAACUUUUUUAGAAUGACACAGCUGAACAGUGUUAAUAAUAGUGUGUCAAGAUUGCAAAGUCGACAUACUCAUUUGGUUUAAGCAGGAAUCCUA | 0.42
CAUCUUUUUCCUAGACCAUGUUUCUGUCUUACUCUUAAACCUGGUAACACUUGAUUUGCCUUCUAUAACCUAUUUAUUUCAAGUGUUCAUAUUUGAAUUUCUUUGGGAAG | 0.334
UGAAGCUAUUGUCAGCUUCUCUAUUUCAAAUGCAAUCAGCAUAUAUCUAUAUUGAUAUCAGAAAAUACUUGUUUUUUAAAGAUAUAUUGAUGUAUGAUAAAGAUGAUCUA | 0.41
AUCAAAGUAGGACAUGCAUCAUCCUCCUAAUUUUAAAUGUUGGCUCUGAUUUUAAAGUGGUGCAUUUGAUUCCAGCCUUGGUAAUGGAGAGUUUGCAAACACACAGCGGC | 2.53

Set 5
Target: Centromere-binding protein 1, full length, His-tagged (CBF1, Saccharomyces cerevisiae, UniProt P17106, residues 1-351)
Chain of UniProt P17106 (whole entry, looked up): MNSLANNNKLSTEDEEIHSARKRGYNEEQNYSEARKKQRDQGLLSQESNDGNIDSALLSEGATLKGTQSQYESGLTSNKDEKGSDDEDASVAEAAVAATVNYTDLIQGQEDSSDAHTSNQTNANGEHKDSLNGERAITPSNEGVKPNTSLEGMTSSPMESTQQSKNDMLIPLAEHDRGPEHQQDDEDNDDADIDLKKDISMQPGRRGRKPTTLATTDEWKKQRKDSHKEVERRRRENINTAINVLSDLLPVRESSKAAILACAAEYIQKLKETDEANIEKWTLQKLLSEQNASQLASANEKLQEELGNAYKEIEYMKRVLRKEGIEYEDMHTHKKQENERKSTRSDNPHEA
Technique: competition protein-binding microarray
Form: double-stranded DNA, one strand shown
Sample: in vitro
Concentration: 2 µM
Setting: whole 60-bp probe, lowest competitor level
Added: Pho4 competitor, 0.05 µM
Reading: higher = stronger binding
Constant ends, left off below: … GTCTTGATTCGCTTGACGCTGCTG
Oligonucleotide | fluorescence intensity [a.u.]
CTTCGTTCCTTCCGTCACATGATGAGATAGAGGAAT | 1340
CTTTCCCGATCTTGTATTGTGGGTGTAGCACATTTG | 76.8
GTCTTGTCTCATTGAGTCGTGGGTGTCCCCACTTCA | 70.7
GCGGCTAAATTTAAGGGCGTGATGGCAGAACTCGGC | 122
GTCTTGTCTCATTGATTGGTGGGTGTCCCCACTTCA | 84.4
CATACCCAACCTTTTCACGTGACCTAAGATATTTGT | 10300
GGCTTGTGTGAGTTCCACGTGCGGATGACTTAATAA | 709
CTACAGACTTAGCACCACATGGGCACCACCAAGGTT | 72.6
TAGGTAGCAAATATTGGCGTGATTGCGGAGCCTTCC | 67.5
GCCGGATCCCGGAATAGCGTGATGGTCTACTCCTGT | 60.4
CAGTGGGATGATCTACTCGTGTGGAAGACATGTCGA | 79.2
CCGTTGACTTAGCTTCCTGTGATGCTGGTGTTGTTG | 73.5
GTACTGCACCATTTGACCGTGATGGACACCATGGAG | 78.3
CTTCTGTAAATTTGTATAGTGGGTGGACGCGCCCCG | 72
CTTCTGTAAATTTGAGAGGTGGGTGGACGCGCCCCG | 85.1
CTAACGAAGGTTTGGACAGTGGGTGACAAGCCAAGT | 61.8
ACCTAGGACTACCAACACATGCAAGGATGCCAGTCT | 69.4
TCTCGAATAGACGGCCACGTGATGGCTAACATTAAT | 3900

Set 6
Target: RING finger protein unkempt homolog, zinc fingers 1-6, GST-SBP tag (UNK, Homo sapiens, UniProt Q9C0B0, residues 30-357)
Technique: RNA Bind-n-Seq
Form: RNA
Sample: in vitro
Concentration: not given
Setting: RNA with constant flanks, human and mouse sites, ends assumed
Reference: input RNA pool
Reading: higher = stronger binding
Constant ends, left off below: GGGAGUUCUACAGUCCGACGAUC … CAACAGAGGAUUGAGCAUCA
Residues (chain): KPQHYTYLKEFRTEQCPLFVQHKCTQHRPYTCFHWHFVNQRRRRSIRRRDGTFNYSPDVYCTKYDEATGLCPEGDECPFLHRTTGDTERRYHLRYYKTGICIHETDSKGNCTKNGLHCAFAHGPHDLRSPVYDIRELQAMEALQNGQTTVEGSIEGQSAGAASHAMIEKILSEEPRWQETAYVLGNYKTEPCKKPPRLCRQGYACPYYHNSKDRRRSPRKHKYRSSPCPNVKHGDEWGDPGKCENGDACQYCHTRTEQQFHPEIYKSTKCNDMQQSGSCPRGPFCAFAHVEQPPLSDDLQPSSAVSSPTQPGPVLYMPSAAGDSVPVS
Oligonucleotide | bound/input enrichment [ratio]
AGUAGAGAUUCAGCACAGUUGGACUUCAGGAACAGGGACAUACAUUCUGGGGAUUUUCGGGAUAGAGAAGGACCACCUAUGGACUACAGGGGUGGAGAUGGUACUCCUAUGGAUUAUAGA | 1.2
UGUGGCCUCACUAAAGGUGGGGUCGCUUAGUCCCCGGGAGUAAAAUGAGUGACCUCAGAAACAAGAAUUCCUGGAAAGGCACAUGCCGAAGAGGAAUAUGGUAUAAUUUUAAAUUUUAAU | 1.68
GCAGCUGCAGUUGCACUUUCCUCCCUGAUUCAUGCUUUGGAUGACUUAGACAUGGUGGCCAUAGUUCGAUAUGCUUAUGACAAAAGAGCUAAUCCUCAAGUCGGCGUGGCUUUUCCUCAU | 0.448
AGUUUCUCCAGAGGAAGCAAUCAAAUGUGAGGACAAAUUCACAAAAUCCAAAACUGUUUAUAGCAUUCUUCGCCAUGUUGCUGAGGUAUUAGAAUAUACCAAGGAUGAGCAGCUGGAGAG | 0.177
GACUUGCUUCUACAGGCUUGUCCUUUGGGUACUUUAUUGGAUGCUAACUUGCAGAAUUCACUGAAUAGCAUUAAUUCCGUAUCUGUGACUCAGCCGCAAAAACAGCCAGCCUGGAAAGUU | 0.191
GAAGUCACCCCAAACCCCAGCUCCCACUUUCAGGGGCACCUCUCAGAUGGCCAUGCUCAGUAUCCCUUCCAGACAGGCCCUCCCCUCUCUAGCGCCCCCUCUGUGGCUCCUAGGGCUGAA | 0.708
AAUUCCAGUGACAGUGAUUCAUCUUGUGGUUGGACUGUCAUCAGUCAUGAGGGGUCAGAUAUAGAAAUGUUGAAUUCUGUGACCCCCACUGACAGCUGUGAGCCCGCCCCAGAAUGUUCA | 0.0726

Set 7
Target: Myc proto-oncogene protein, bHLH-zipper, MAX partner unstated (MYC, Homo sapiens, UniProt P01106, residues 368-449)
Chain of UniProt P01106 (368-449, looked up): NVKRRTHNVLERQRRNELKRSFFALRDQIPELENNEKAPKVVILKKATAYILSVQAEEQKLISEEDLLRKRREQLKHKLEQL
Technique: protein-binding microarray
Form: double-stranded DNA, one strand shown
Sample: in vitro
Concentration: not given
Setting: k-mer, scored over probes, only values ≥0.25
Reading: higher = stronger binding
Oligonucleotide | E-score
ATGCGGCA | 0.373
CATCGTGA | 0.344
CGTCCACG | 0.364
ACCACGAC | 0.303
CGTGCATC | 0.35
GCACACCA | 0.339
CCATGGGG | 0.364
CATGGCGG | 0.36
CAGGGGCG | 0.261
CCACGAGG | 0.483

Repeated from above (set 7):
Oligonucleotide | E-score
ATGCGGCA | 0.373
CATCGTGA | 0.344
CGTCCACG | 0.364
ACCACGAC | 0.303
CGTGCATC | 0.35
GCACACCA | 0.339
